Results gathered from unrelated publications.
Lines come from different studies, so protocols differ. ± marks the error that the study gave.

| Compound | assay | system | setting | Cmax |
| --- | --- | --- | --- | --- |
| CN1CCC(COc2cnc(-c3cccc(Cn4nc(-c5cccc(C#N)c5)ccc4=O)c3)nc2)CC1 |  | human | 500 mg, day 1, alone, geometric mean | 0.414 µg/mL |
| Cc1cc(OCCOCCC(F)(F)P(=O)(O)O)ccc1CCc1cnc2c(N)nc3cc(CCC(=O)O)ccc3c2c1 |  | human, serum | intratumoral, 200 µg every 2 weeks, cycle 2 day 15 | 0.00234 µg/mL |
| COc1ccc2nc([S@@+]([O-])Cc3ncc(C)c(OC)c3C)[nH]c2c1 |  | human male, dried plasma spots | oral, 5 mg racemic omeprazole, together with: rifampicin pretreatment | 0.0108 µM |
| COc1nnc2ccc(N3CCC(c4ccc(OCCN5CCN(C)C(=O)[C@H]5C)cc4)CC3)nn12 |  | human, plasma | oral, 10 mg once daily, multiple dose, monotherapy | 0.0879 µM |
| C=CCNC1=C2C[C@@H](C)C[C@H](OC)[C@H](O)[C@@H](C)/C=C(\C)[C@H](OC(N)=O)[C@@H](OC)/C=C\C=C(/C)C(=O)NC(=CC1=O)C2=O |  | human, plasma | 400 mg/m2 | 7.82 µg/mL |
| C=CC(=O)N(C)CCOc1c(N)ncnc1-c1cc(F)cc(NC(=O)c2ccc(C3CC3)cc2F)c1C |  | human, whole blood | oral, 15 mg, single ascending dose, fasted | 0.0248 µg/mL |
| Cc1ccc(C(=O)N(CCCN)C(c2nc3snc(C)c3c(=O)n2Cc2ccccc2)C(C)C)cc1 (centres unmarked) |  | human patients, plasma | intravenous, 10 mg/day, day 3 of induction course, geometric mean | 0.123 µg/mL |
| Cc1cn(C(=O)c2c(-c3c(Cl)cc(Cl)cc3Cl)noc2C(C)(C)F)c2cccc(/C=C/C(=O)O)c12 |  | human patients | 125 mg bid, cycle 1 day 1 | 5.62 µg/mL |
| CC(C)(Sc1ccncc1-c1ccc(C#N)c2ccccc12)C(=O)O |  | human, plasma | oral, 5 mg once daily, together with: febuxostat 20 mg | 0.0132 µg/mL |
| CC(C)NC(=O)COc1cccc(-c2nc(Nc3ccc4[nH]ncc4c3)c3ccccc3n2)c1 |  | human, male, fed, plasma | oral, 200 mg once daily, day 8, geometric mean, together with: raltegravir | 2.76 µg/mL |
| COCCc1ccc(OCC(O)CNC(C)C)cc1 (centres unmarked) |  | human | dose not given, alone | 0.0357 µg/mL |
| C#C[C@]1(CO)O[C@@H](n2cnc3c(N)nc(F)nc32)C[C@@H]1O |  | human, plasma | oral, 200 mg, single dose, geometric mean | 6.17 µM |
| COc1ncnn2ccc(-c3cnc4nc(C)n(Cc5nnc([C@@H](C)F)o5)c4c3)c12 | LC-MS/MS | human, plasma | oral, 105 mg capsule | 1.05 µg/mL |
| COc1cc([C@H]2Oc3cc([C@H]4Oc5cc(O)cc(O)c5C(=O)[C@@H]4O)ccc3O[C@@H]2CO)ccc1O |  | OATP1B1/1B3 humanized mice, plasma | oral gavage, 500 mg/kg silymarin | 1.72 µM |
| COC(=O)N[C@H](C(=O)N1CCC[C@H]1c1nc2cc([C@H]3CC[C@H](c4cc5nc([C@@H]6CCCN6C(=O)[C@@H](NC(=O)OC)[C@@H](C)OC)[nH]c5cc4F)N3c3cc(F)c(N4CCC(c5ccc(F)cc5)CC4)c(F)c3)c(F)cc2[nH]1)[C@@H](C)OC |  | healthy human subjects, plasma | oral, dose not given, together with: carbamazepine twice daily | 0.16 µg/mL |
| C[C@H]1CNCCCN1S(=O)(=O)c1cccc2cncc(F)c12 |  | human, male, plasma | ocular instillation, 1 drop per eye twice daily, day 8 | 0.000609 µg/mL |
| Cc1cc(/C=C/C#N)cc(C)c1Nc1ccnc(Nc2ccc(C#N)cc2)n1 |  | human, haemodialysis, plasma | oral, dose not given, steady state | 0.11 µg/mL |
| NC[C@@]1(CC(=O)O)[C@@H]2CC[C@H]3C[C@@H]2[C@@H]1C3 |  | human, moderate renal impairment, plasma | oral, 20 mg single dose, geometric mean | 0.41 µg/mL |
| C[C@H](CCC(=O)O)[C@H]1CC[C@H]2[C@@H]3CC[C@@H]4C[C@H](OS(=O)(=O)O)CC[C@]4(C)[C@H]3CC[C@]12C |  | human, plasma | concentration not given, endogenous baseline diurnal | 0.323 ± 0.027 µM |
| CC(C)n1c(Nc2cccnc2)nc2cnc(Nc3ccc(N4CCN(C)CC4)cc3)nc21 | LC-MS/MS | human, male, plasma | oral, 100 mg, day 11, together with: itraconazole 200 mg | 0.064 µg/mL |

Some of these lines once more:
| Compound | assay | system | setting | Cmax |
| --- | --- | --- | --- | --- |
| C#C[C@]1(CO)O[C@@H](n2cnc3c(N)nc(F)nc32)C[C@@H]1O |  | human, plasma | oral, 200 mg, single dose, geometric mean | 6.17 µM |
| COc1ncnn2ccc(-c3cnc4nc(C)n(Cc5nnc([C@@H](C)F)o5)c4c3)c12 | LC-MS/MS | human, plasma | oral, 105 mg capsule | 1.05 µg/mL |
| COc1cc([C@H]2Oc3cc([C@H]4Oc5cc(O)cc(O)c5C(=O)[C@@H]4O)ccc3O[C@@H]2CO)ccc1O |  | OATP1B1/1B3 humanized mice, plasma | oral gavage, 500 mg/kg silymarin | 1.72 µM |
